Published values gathered from unrelated publications.
Every numbered part comes from another study and shows a few of its results, in no order.

Series 1 — technique: RNA Bind-n-Seq; molecule type: RNA; sample: in vitro; tested at: 365 nM; baseline: no-protein control; direction: higher = stronger binding; measurement: RBNS enrichment (R)
Target: RNA binding protein fox-1 homolog 2, RRM domain, GST-SBP tag (RBFOX2, Homo sapiens, UniProt O43251-10, residues 100-194)
Setting: natural RNA segment, single round, ends assumed
Construct (chain): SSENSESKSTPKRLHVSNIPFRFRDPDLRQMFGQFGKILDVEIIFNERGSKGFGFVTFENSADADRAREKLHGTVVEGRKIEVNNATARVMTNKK
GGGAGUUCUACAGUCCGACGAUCUCCGCUGCUUCUUGGUUGCCGAGACAGAGAGAUGGUGGUCUCGGGCCAGCCCCUCCUCUCCCCGCCUUCUGGGAGGAGGAGGUCACACGCUGAUGGGCACUGGAGAGGCCUGGAAUUCUCGGGUGCCAA: 1.58
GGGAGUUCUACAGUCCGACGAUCAACUGAGUUUUGUUACCAAUGACCUGUUGCAUGCUUCAAUACCGUGUACUGCCUGAGUUGUGCCUCUUGUGUGCUAGAUUAAAAGUGAGACAGAGACUUGACUUGAUCCUUGGAAUUCUCGGGUGCCAA: 1.22
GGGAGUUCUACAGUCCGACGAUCCAAACUUAACAUUAGAAAAUAAGGUCCAGGGCCGGACACAGUGGCCCAUGCCUGUAAUCCCAGCACUUUGGGGGGCCAAGGCAGGCUGGAUCACCUGAGGACAGGAGUUCUGGAAUUCUCGGGUGCCAA: 0.762
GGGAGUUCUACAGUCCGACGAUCACUUUUUCUAUAAGAAGAAAAAUUAAGACCACUUAUUUGAAAACAAAGAUGAAGUCUCACCUUCCAGUUUGCUUUCUCAUUAGUUUUUUCCAAAGUAAGUUAUUGAAGCUUGGAAUUCUCGGGUGCCAA: 0.349
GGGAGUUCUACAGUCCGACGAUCUGUUUGAAAUUAGUAACAAUGCUGCAUCUAGAUUGGAGUGCUGCCCAGCCAUAGAAGCAGAGCUGAACAGUAUCACAUAGCGAUUCAUGGUCACUCGCAACCUGAGUUCAUGGAAUUCUCGGGUGCCAA: 0.489
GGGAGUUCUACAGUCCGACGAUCUAGAUAGACAUUAAAGUAAAGCAGCUGUUUGUUAUUGAUAAUAAAAUACUAAGUAUUAUAAAACUGCUUUUGGUCUGUUUCUCUCAAGUUCUGUAUUAUUUAUUCUAUCAUGGAAUUCUCGGGUGCCAA: 0.86
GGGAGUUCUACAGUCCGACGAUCGUGAUUUCAUAGAUAAUAUAUUUAAUAUGACAGAUUAUGUUUCAACUCUGUAGAUGUUUAACGUCAUAGACAGUUGGCCCUCUGUAUCCGUGAGCUCUAUAUCUGUGAAUUGGAAUUCUCGGGUGCCAA: 0.422
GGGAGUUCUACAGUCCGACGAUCGUAGAACUACUUUGGAAUUUAUCUCCAUUUUCCACAAAAAGAAGCUUCUUUGAUGAAGGAGGAGAGAUGAAGAGUUGCUUGUUUUGCAGAAUUCUAUAGCAUGAAGGUUAUGGAAUUCUCGGGUGCCAA: 1.37
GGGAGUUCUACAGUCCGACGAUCUAAGUGAUACAAACAUGCCGAAUUACCUGUAAAGAAUGCAUUUAAAGCUAUUCUAAAUGGGUUUUUAUUUGUAAGACAUUAUUUACUAGGAAGCUGGUGAUAUUAAUGCUUGGAAUUCUCGGGUGCCAA: 0.495

Series 2 — technique: protein binding microarray; molecule type: double-stranded DNA, one strand shown; sample: in vitro; tested at: not given; baseline: not given; direction: higher = stronger binding; measurement: E-score
Target: Histone acetyltransferase KAT6A, both winged helices, GST fusion (KAT6A, Homo sapiens, UniProt Q92794, residues 1-181)
Setting: 8-mer, flanks averaged, mean of 2 arrays, mostly near background
Residues (chain): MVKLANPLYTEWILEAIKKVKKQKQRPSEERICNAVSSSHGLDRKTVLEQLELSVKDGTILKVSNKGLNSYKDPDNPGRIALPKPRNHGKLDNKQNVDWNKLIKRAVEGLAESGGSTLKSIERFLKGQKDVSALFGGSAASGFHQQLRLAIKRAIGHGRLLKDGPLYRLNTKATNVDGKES
GCCATATA: 0.0551
ATGGTCCG: 0.184
ACGCCGGG: 0.26
CGGGACTC: 0.215
AAAGCCAT: -0.0424
TAGAGATA: -0.122
GCAGAAGA: -0.093
AGATTCCT: -0.265
CCTATGAC: -0.103
ATCTCCCC: -0.203
ACCGGTTA: 0.283
AGCTTGGA: -0.207
ATGCCAGC: -0.0572
ACTTGCAG: -0.17
ATTACTGA: -0.133
CTTTCAGA: -0.0857
CTCTAACA: -0.0693
AGAAATAT: -0.00545
CATCTGCC: -0.0602
CTAATACC: 0.022
AATTCCAG: -0.148
ACGCGCAT: 0.344
AGTTTGAA: 0.0671
AAGCACCA: -0.162
AAGGCAAA: -0.118

Series 3 — technique: RNA Bind-n-Seq; molecule type: RNA; sample: in vitro; tested at: not given; baseline: input RNA pool; direction: higher = stronger binding; measurement: bound/input enrichment
Target: RING finger protein unkempt homolog, zinc fingers 1-6, GST-SBP tag (UNK, Homo sapiens, UniProt Q9C0B0, residues 30-357)
Setting: RNA with constant flanks, human and mouse sites, ends assumed
Construct (chain): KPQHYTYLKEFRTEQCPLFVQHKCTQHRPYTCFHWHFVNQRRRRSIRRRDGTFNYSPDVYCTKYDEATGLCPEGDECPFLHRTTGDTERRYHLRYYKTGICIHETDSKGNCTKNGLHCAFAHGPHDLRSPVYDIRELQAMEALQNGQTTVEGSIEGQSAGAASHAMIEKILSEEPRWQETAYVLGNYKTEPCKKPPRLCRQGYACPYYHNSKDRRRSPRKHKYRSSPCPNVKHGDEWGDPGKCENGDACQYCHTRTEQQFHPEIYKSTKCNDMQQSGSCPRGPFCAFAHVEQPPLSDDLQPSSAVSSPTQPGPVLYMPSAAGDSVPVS
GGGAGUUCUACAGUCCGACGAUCGUUUACAUCUUUGGUGACGGACGAGGCCUUAUAGAAGGAAAUGACAUUUAUGGUAAUGCGUUAGCAGGAAUUCAGAUCAGGACAAACAGUUGUCCUAUUGUUCGACAUAACAAAAUUCAUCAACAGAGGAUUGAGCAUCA: 0.409 ratio
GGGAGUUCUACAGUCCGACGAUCCAUAAUUUGAAGGACCGCUACUAUUCAGGACUUAUCUAUACUUACUCUGGACUCUUCUGUGUGGUGAUAAAUCCUUACAAGAACCUUCCAAUUUACUCUGAGAAUAUUAUUGAAAUGUAUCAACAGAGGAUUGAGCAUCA: 0.352 ratio
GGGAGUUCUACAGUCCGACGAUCAAGAGGAAGCUGAUUGUUGACAGUGUCAAAGAAUUGGAUAGUAAGACCAUUAGAGCCCAGCUUAGCGAUUAUUCUGAUAUUGUUACGACUCUGGACCUGGCUCCGCCAACCAAGAAGCUUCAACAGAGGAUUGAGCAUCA: 1.12 ratio
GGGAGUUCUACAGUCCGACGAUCGAACCCUAGCACAAAUUUGCUUUGGGAUUUUCUUUUCUGGAAAAAAAAAAUAAAAGAAAUAGUACAUUGAAAACAAAUGAAUUCUCAACUCCUACGGUUCAUGUAGAGUUUAGAGAAAAUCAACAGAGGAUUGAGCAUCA: 6.07 ratio
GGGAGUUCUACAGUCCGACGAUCAUUAUAAGAGAAACAGAAAAUGAUGAUCUUACAAAUGUAAUUCAGAAAAUGAUCUGUGAAUAUAGUGAAGAAGUUACUCCUAUUGCUGUAGAAAUGACACAACAUCUGGCAAUGACAUUUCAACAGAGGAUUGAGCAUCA: 0.182 ratio
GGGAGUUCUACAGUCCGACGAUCUUGCCUGAAAAUGAAGAUGAAUUGGAGAGCACCAAUAGACGCUAUACCAAGAGAGACUGUAGCACUUUUCUCAGAACUAGCGAGACGGGCAUUGUGGAUCAGGUUAUGGUAACUCUCAAUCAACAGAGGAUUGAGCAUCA: 0.766 ratio
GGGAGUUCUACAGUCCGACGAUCCAAAAAAGAUAUGAGGAAGAGCUCCUCCCCUUCCUUGAGUAACUGCAACUCCGUUCUUGCUAACAAAAUAUUUGGAAUUCCACUUGAUGAGCUGCAGCAGGGAGGACAUCCAGACAAUGACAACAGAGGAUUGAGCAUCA: 0.167 ratio
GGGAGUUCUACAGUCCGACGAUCCGAGGGCUCCAGGCACUCGGCCAGACCUUCGGGGCAAACCCAGCAUUUGCCAGCUCCCUUCGAUACCUGGACCUGAGCAAGAAUCCUGGGCUCCUCGCCACGGAUGAGGCCAAUGCCCUCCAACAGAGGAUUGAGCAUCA: 0.0657 ratio
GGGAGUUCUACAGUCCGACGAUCAGUCCAUGUUAAGUUUCAUUUAAAAGAUGCAUUUAUAUUUUGUUCUGUAAUAUUCUACUGUAGGUGAAAUCUUCAAAAAUCAAGAGACUGGGUAGUUAAGAAUAUAUGAAUGACUAAUAUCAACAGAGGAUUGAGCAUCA: 0.642 ratio
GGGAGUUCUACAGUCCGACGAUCGCAUGUUCUUAUGGACAUUAUGAAGUUGCAGAACUUCUUGUUAAACAUGGAGCAGUAGUUAAUGUAGCUGAUUUAUGGAAAUUUACACCUUUACAUGAAGCAGCAGCAAAAGGAAAAUAUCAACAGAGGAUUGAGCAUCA: 0.667 ratio
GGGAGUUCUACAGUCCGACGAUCAUCAAUGUGAAGAAGGGGAGCAUCUCGGGGAUUACCAUGGUGCUGGCAUGCUACGUGCUCUUUAGCUACUCCUUUUCCUACAAGCAUCUCAAGCACGAGCGGCUCCGCAAAUACCACUGACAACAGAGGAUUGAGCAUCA: 0.188 ratio

Series 4 — technique: protein-binding microarray; molecule type: double-stranded DNA, one strand shown; sample: in vitro; tested at: 250 nM; setting: 60-bp whole probe; together with: salmon DNA 0.4 mg/ml; baseline: random background probes; direction: higher = stronger binding; measurement: log fluorescence; shared flanks, not repeated: GCCTAGCAC … GTCTTGATTCGCTTGACGCTGCTG
Target: Interferon regulatory factor 7, full length, phosphomimetic (IRF7, Homo sapiens, UniProt Q92985, residues 1-503, S101K/S471D/S472D/S475D/S476D/S477D/S483D/S484D/S487D)
Target sequence (chain): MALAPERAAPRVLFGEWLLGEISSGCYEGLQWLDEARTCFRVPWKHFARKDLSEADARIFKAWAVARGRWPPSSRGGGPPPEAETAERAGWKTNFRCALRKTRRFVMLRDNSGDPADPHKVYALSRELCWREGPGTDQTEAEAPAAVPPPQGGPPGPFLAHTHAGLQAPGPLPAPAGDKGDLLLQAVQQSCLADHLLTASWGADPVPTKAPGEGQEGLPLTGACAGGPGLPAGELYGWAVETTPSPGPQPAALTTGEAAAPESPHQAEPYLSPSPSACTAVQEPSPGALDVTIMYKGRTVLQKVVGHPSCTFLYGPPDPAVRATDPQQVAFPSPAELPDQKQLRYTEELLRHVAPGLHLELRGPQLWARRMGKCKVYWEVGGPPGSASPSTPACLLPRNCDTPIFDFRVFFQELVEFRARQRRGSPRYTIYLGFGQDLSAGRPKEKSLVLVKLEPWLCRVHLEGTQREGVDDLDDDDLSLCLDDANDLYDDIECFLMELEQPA
GACGGTTTCGGGACTCGGGACGTGCTA: 5.36 z-score
GTAGAACTGGGGTATCGATTAGTGCTA: -0.204 z-score
TTAGGTATCCTTATCTTTTAGTGCTAG: 0.472 z-score
GACGGTCCCGGTATCGGGACGTGCTAG: 0.676 z-score
TGTGATCTCATATGAAAACAGTGCTAG: 0.535 z-score
CCCGCTTTTTTTTTTTTTTTGTGCTAG: 0.569 z-score
GACGAACTGGCGTTTCGAGACGTGCTA: -0.0586 z-score
TTAGATATCGGTATCGATTAGTGCTAG: 1.39 z-score
TCATTTGTCACTCTCAGACTGTGCTAG: 1.12 z-score
TCAGTCTTCCCCATCTTACTGTGCTAG: 1.41 z-score
TCAGCTACCTCTCTTAGACTGTGCTAG: -0.748 z-score
TTAGGTTTCCTTTCCCATTAGTGCTAG: 4.98 z-score
GATGGACTGCTTCTCCTGACGTGCTAG: -0.0941 z-score
GACGGTCTGGGGTTTCGGGACGTGCTA: 0.591 z-score
CCCGTTCACCCACGACCCTTGTGCTAG: 0.963 z-score
GACGATTTCAGTATCGAGAGGTGCTAG: 0.122 z-score
GACGGACTGCTTATCCGGACGTGCTAG: -0.128 z-score
TTTTTTTTTTTTTTTTTGTAGTGCTAG: 0.626 z-score
GCAGGAGAGACAGAAGTTATGTGCTAG: -1.01 z-score
CCCCATCTTGTTCCCAGAGAGTGCTAG: 0.808 z-score
TTAGGTATCCTTATCCATTAGTGCTAG: 0.423 z-score
